Measured values of several laboratories.
Protocols differ between the studies behind these lines. Numbers after ± are the reported error. No end group written: not given here.
CHRM1: Muscarinic acetylcholine receptor M1 (CHRM1, Homo sapiens, UniProt P11229)
Chain of UniProt P11229 (whole entry, looked up): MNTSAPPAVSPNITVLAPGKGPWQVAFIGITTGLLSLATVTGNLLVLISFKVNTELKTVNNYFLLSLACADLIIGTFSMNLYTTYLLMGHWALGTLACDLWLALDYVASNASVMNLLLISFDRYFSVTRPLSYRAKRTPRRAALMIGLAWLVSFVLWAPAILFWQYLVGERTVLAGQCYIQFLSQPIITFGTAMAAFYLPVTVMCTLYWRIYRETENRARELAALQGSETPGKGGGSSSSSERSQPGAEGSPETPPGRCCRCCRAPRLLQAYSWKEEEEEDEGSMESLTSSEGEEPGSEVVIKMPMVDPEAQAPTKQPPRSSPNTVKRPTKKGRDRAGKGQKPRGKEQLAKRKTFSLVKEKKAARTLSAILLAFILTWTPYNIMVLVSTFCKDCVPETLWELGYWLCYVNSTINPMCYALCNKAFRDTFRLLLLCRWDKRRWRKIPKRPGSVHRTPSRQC
T1: c-di-GMP riboswitch (Clostridium acetobutylicum); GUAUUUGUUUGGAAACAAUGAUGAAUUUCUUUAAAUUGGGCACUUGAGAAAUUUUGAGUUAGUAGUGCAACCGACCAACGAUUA
B1: side-chain stapled; chain RTKQEARKSTGG (also: sidechain bridge or staple (positions not given here))
Chain of UniProt P16435 (whole entry, looked up): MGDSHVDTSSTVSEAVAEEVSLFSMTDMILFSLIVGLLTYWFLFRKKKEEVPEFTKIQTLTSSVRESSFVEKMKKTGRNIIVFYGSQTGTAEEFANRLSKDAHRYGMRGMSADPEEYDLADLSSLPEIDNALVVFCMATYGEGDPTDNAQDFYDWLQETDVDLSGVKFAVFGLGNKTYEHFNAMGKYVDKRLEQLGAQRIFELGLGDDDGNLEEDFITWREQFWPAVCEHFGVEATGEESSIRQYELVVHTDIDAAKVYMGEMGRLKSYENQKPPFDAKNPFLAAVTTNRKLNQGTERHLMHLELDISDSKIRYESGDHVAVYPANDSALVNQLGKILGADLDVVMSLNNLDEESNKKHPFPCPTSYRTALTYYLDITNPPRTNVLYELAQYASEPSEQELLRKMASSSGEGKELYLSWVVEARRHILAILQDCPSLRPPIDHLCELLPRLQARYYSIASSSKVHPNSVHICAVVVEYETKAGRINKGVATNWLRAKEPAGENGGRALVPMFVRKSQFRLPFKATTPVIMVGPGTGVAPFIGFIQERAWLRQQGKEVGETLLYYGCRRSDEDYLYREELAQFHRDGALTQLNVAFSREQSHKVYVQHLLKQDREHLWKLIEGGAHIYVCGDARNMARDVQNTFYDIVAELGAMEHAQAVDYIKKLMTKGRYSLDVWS
Chain of UniProt P19111 (whole entry, looked up): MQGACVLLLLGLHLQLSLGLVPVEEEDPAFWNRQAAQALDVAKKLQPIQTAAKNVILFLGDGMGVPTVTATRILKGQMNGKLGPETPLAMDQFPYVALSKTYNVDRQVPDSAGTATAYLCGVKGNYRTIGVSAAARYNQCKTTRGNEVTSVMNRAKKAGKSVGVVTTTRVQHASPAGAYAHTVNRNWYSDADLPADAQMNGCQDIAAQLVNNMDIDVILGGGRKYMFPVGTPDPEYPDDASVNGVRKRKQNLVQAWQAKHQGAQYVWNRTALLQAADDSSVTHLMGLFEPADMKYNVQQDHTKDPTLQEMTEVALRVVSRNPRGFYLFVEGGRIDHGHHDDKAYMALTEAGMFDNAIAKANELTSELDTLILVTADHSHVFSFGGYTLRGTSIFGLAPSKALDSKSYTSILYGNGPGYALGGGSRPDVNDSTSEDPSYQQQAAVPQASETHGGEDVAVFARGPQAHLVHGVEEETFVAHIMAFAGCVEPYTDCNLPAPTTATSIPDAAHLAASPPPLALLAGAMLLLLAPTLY
Chain of UniProt P08173 (whole entry, looked up): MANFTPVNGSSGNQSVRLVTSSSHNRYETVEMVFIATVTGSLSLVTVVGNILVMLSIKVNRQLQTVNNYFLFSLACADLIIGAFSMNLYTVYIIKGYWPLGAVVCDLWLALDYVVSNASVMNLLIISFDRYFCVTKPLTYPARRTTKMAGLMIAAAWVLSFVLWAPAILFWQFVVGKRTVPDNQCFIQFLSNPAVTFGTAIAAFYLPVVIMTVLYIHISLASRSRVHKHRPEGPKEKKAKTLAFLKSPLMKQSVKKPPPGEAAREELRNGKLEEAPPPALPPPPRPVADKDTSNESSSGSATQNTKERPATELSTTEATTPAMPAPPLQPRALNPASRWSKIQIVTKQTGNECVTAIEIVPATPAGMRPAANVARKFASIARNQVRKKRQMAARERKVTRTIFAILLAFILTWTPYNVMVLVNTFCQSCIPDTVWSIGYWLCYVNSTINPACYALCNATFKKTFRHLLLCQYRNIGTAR
Chain of UniProt Q8TDU6 (whole entry, looked up): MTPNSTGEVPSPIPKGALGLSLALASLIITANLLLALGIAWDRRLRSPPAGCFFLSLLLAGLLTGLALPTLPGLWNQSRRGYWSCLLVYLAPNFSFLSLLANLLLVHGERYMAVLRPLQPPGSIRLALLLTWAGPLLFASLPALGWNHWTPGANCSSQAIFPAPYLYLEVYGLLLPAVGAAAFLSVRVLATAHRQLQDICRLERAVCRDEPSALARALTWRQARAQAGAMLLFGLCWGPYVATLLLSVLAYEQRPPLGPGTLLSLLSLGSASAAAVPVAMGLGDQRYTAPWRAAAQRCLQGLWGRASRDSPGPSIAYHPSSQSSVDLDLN
Chain of UniProt P05093 (whole entry, looked up): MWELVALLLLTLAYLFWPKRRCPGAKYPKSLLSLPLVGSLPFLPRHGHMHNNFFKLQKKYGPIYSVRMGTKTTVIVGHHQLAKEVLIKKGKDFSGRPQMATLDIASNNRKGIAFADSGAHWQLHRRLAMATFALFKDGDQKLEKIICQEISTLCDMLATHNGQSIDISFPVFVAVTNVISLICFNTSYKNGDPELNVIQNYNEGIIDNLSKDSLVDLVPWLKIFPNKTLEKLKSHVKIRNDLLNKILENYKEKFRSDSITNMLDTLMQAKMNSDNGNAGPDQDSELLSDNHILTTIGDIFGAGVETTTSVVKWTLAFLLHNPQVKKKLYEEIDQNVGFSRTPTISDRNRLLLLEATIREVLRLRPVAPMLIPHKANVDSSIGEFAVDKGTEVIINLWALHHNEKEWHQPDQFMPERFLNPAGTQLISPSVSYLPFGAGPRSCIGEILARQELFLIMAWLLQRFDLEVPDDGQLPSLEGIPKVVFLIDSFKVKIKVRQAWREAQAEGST
Chain of UniProt Q9Y5Y9 (whole entry, looked up): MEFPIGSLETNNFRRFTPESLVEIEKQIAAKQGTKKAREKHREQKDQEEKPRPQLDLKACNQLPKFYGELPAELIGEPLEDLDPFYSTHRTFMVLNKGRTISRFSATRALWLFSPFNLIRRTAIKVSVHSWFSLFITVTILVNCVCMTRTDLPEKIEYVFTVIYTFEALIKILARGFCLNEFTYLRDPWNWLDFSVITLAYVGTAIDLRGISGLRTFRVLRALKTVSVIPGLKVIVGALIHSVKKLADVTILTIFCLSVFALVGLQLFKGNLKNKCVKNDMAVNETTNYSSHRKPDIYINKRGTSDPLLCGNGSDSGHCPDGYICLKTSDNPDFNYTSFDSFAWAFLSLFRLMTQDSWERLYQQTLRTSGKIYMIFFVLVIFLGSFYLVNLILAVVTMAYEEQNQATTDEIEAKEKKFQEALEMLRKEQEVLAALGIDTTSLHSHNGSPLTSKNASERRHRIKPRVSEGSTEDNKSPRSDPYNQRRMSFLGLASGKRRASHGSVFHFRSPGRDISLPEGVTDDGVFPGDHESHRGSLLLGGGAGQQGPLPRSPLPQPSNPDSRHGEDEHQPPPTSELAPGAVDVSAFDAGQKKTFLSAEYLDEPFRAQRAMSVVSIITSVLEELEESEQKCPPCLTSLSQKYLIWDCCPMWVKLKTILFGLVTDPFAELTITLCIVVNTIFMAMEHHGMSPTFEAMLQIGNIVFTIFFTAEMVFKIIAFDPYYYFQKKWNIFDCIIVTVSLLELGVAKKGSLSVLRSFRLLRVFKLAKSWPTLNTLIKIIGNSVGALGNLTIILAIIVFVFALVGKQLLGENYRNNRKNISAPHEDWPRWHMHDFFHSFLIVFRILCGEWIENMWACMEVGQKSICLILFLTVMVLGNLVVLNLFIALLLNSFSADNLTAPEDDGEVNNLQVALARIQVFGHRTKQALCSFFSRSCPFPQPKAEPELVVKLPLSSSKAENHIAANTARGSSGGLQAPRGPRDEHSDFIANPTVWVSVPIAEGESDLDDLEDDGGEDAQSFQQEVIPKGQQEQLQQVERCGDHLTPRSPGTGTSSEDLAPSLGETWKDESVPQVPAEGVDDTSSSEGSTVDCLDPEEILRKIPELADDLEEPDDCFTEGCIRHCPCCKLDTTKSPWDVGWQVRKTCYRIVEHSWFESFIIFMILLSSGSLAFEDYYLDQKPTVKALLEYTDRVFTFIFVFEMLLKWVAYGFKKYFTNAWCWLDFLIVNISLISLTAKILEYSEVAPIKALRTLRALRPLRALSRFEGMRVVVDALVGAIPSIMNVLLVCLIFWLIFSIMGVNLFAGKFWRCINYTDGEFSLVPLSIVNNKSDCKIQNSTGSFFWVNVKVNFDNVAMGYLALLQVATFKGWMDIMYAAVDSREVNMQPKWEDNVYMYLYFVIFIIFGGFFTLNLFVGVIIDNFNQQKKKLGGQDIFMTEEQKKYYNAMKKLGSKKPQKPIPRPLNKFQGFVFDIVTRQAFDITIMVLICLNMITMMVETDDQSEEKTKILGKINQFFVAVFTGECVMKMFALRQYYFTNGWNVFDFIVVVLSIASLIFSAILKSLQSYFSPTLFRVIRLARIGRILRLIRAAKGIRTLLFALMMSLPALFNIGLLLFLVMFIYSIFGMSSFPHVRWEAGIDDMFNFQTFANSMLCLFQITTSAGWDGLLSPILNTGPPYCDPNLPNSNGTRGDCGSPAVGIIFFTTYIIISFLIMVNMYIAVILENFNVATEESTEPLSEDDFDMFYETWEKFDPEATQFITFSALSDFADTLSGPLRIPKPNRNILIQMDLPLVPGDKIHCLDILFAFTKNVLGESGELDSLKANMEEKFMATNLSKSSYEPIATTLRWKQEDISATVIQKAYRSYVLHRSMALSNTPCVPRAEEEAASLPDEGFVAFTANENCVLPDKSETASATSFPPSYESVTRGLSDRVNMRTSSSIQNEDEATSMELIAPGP

For `Brc1cccc2[nH]ccc12`, the conversion was 41.1% (Dehaloperoxidase B, ferric (Amphitrite ornata, UniProt Q9NAV7); substrate, HPLC; 5% methanol; 5 min, pH 7, 25 °C, enzyme 10 µM, with: H2O2 500 µM).
Under “ΔpEC50 of ACh”, `O=c1cc(-c2ccccc2OCc2ccc(Br)cc2)ncn1C1CCCCC1O` (centres unmarked) is recorded as 0.87 ± 0.15 log units (CHRM1; positive allosteric modulator, IP1 accumulation; CHO-M1 cells; 1 µM, 60 min, 37 °C, with: ACh; reference: ACh alone, higher = stronger potentiation).
`CC(=O)[C@H]1CC[C@H]2[C@@H]3CCC4=CC(=O)CC[C@]4(C)[C@H]3CC[C@]12C` — result for “maximal ligand binding increase”: 15% (CYP17A1/POR, FMN domain fusion (Homo sapiens, UniProt P05093+P16435); UV-visible difference spectroscopy; FMN domain fusion; reference: CYP17A1).
`COC(=O)c1scc(C)c1NC(=O)C(C)N1CC(C)CC(C)C1` (centres unmarked): “capacity factor k′” 43 (Sodium channel protein type 10 subunit alpha (SCN10A, Homo sapiens, UniProt Q9Y5Y9); cell membrane chromatography; higher = stronger binding).
With `[Na+].[Na+].[Na+].[O]=[V]([O-])([O-])[O-]` the Km was 0.31 ± 0.04 µM (Intestinal-type alkaline phosphatase (ALPI, Bos taurus, UniProt P19111); 0.76 µM, with: DiFMUP substrate).
For `CC1(C)c2cc(CC(=O)c3ccc(O)cc3O)c(O)cc2OC1CO` (centres unmarked), “concentration doubling activity” read 19.6 µM (quinone reductase; inducer; Hepa1c1c7).
The Kd of `Cn1c(N)nc2c(ncn2[C@@H]2O[C@@H]3COP(=O)(O)O[C@H]4[C@@H](O)[C@H](n5cnc6c(=O)[nH]c(N)nc65)O[C@@H]4COP(=O)(O)O[C@H]3[C@H]2O)c1=O` is reported as 160 nM (T1, c-di-GMP riboswitch (Clostridium acetobutylicum); competitor, competition gel-shift; 4-24 h, pH 6.8, 22 °C, with: radiolabelled c-di-GMP).
`O=c1cc(-c2ccccc2OCc2ccccc2)ncn1C1CCCCC1O` (centres unmarked): “change in baseline activity” -0.3 ± 1.7 (CHRM1; allosteric agonist, IP1 accumulation; CHO-M1 cells; 1 µM, unit not given; reference: maximum ACh response).
`C[C@H](CCCOc1cccc(CO)c1)[C@H]1CC[C@H]2[C@@H]3CC=C4C[C@@H](O)CC[C@]4(C)[C@H]3CC[C@]12C` gave an Emax of ~129% (G-protein coupled bile acid receptor 1 (GPBAR1, Homo sapiens, UniProt Q8TDU6); CRE reporter gene, agonist, luciferase reporter; HEK293T transfected; 10 µM; reference: TLCA).
`B1` has a methylation conversion of ~16% (Histone-lysine N-methyltransferase SETD7 (SETD7, Homo sapiens, UniProt Q8WTS6); peptide methylation, substrate, MALDI-TOF MS; 10 µM, 3 h, pH 8.0, 37 °C, enzyme 500 nM, with: SAM 30 µM).
For `O=C(O)c1ccc(COc2ccccc2-c2cc(=O)n(C3CCCCC3O)cn2)cc1` (centres unmarked), “ΔpEC50 of ACh” read 0.37 ± 0.1 log units (CHRM1; positive allosteric modulator, IP1 accumulation; CHO-M1 cells; 1 µM, 60 min, 37 °C, with: ACh; reference: ACh alone, higher = stronger potentiation).
`CC(C(=O)O)c1ccc(-c2ccccc2)c(F)c1` (centres unmarked) has a current change of 0.22 µA (unc-8 (Caenorhabditis elegans, UniProt Q21974, G387E); ion current, two-electrode voltage clamp; Xenopus oocytes coexpressing MEC-2; 30 µM, -85 mV; reference: uninjected oocytes, positive = inhibition).
For `Cn1cc(-c2ccc(COc3ccccc3-c3cc(=O)n(C4CCCCC4O)cn3)c(F)c2)cn1` (centres unmarked), “ΔpEC50 of ACh” read 1.38 ± 0.19 log units (CHRM1; positive allosteric modulator, IP1 accumulation; CHO-M1 cells; 1 µM, 60 min, 37 °C, with: ACh; reference: ACh alone, higher = stronger potentiation).
For `COc1ccc(C)c2sc(NS(=O)(=O)c3cc(C)ccn3)nc12`, activity read “inactive” (Muscarinic acetylcholine receptor M4 (CHRM4, Homo sapiens, UniProt P08173); calcium mobilization, positive allosteric modulator; CHO expressing hM4 and Gqi5; concentration not given, with: acetylcholine EC20).
